Assay results pooled from the literature.
± gives the spread as reported.
Organism: Staphylococcus epidermidis

[Ag+].[S-]c1ccccn1.c1ccc(P(c2ccccc2)c2ccccc2)cc1.c1ccc(P(c2ccccc2)c2ccccc2)cc1
inhibition zone diameter (MTCC 435, DMSO; 0.1 mL of 50 mg/mL in 8 mm well, 18 to 24 h): 14 mm

CN1CC(=O)N=C1N.C[C@H](CCC(=O)O)[C@H]1CC[C@H]2[C@@H]3[C@H](O)C[C@@H]4C[C@H](O)CC[C@]4(C)[C@H]3CC[C@]12C
inhibition zone diameter (TISTR 2172; 1 mg per disc, 18 to 24 h, 37 °C, 6 mm disc): 12 ± 0.6 mm

CC[C@H](C)[C@H](NC(=O)[C@H](CCCCN)NC(=O)[C@H](CCCCN)NC(=O)[C@H](CC(C)C)NC(=O)[C@H](CCCCN)NC(=O)[C@H](CCC(=O)O)NC(=O)[C@H](CCCCN)NC(=O)[C@@H](NC(=O)[C@H](CCCCN)NC(=O)[C@H](CC(N)=O)NC(=O)[C@H](CCCNC(=N)N)NC(=O)[C@H](Cc1ccccc1)NC(=O)[C@H](CCCCN)NC(=O)[C@H](CCCNC(=N)N)NC(=O)[C@H](CC(C)C)NC(=O)[C@H](CCCNC(=N)N)NC(=O)[C@H](CCCCN)NC(=O)[C@H](CCCNC(=N)N)NC(=O)[C@H](CC(C)C)NC(=O)[C@@H](N)CC(C)C)[C@@H](C)CC)C(=O)NCC(=O)N[C@@H](CCC(N)=O)C(=O)N[C@@H](CCCCN)C(=O)N[C@H](C(=O)N[C@@H](CCC(N)=O)C(=O)NCC(=O)N[C@@H](Cc1ccccc1)C(=O)N[C@H](C(=O)N1CCC[C@H]1C(=O)N[C@@H](CCCCN)C(=O)N[C@@H](CC(C)C)C(=O)N[C@H](C(=O)N1CCC[C@H]1C(=O)N[C@@H](CCCNC(=N)N)C(=O)N[C@H](C(=O)N[C@@H](CCC(=O)O)C(=O)N[C@@H](CO)C(=O)O)[C@@H](C)O)C(C)C)C(C)C)[C@@H](C)CC
lethal concentration (inhibition zone; penicillin-resistant P1389): 1.3 µM

CN1CC(=O)N=C1N.C[C@H](CCC(=O)O)[C@H]1CC[C@H]2[C@@H]3CC[C@@H]4C[C@H](O)CC[C@]4(C)[C@H]3C[C@H](O)[C@]12C
inhibition zone diameter (TISTR 2172; 1 mg per disc, 18 to 24 h, 37 °C, 6 mm disc): 13.3 ± 0.2 mm

ONCc1cc(C(F)(F)F)cc(C(F)(F)F)c1
MIC50 (ATCC 1798; 8 h): < 60 µg/mL

CC[C@H](C)[C@H](NC(=O)[C@H](CCCCN)NC(=O)[C@H](CCCCN)NC(=O)[C@H](CC(C)C)NC(=O)[C@H](CCCCN)NC(=O)[C@H](CCC(=O)O)NC(=O)[C@H](CCCCN)NC(=O)[C@@H](NC(=O)[C@H](CCCCN)NC(=O)[C@H](CC(N)=O)NC(=O)[C@H](CCCNC(=N)N)NC(=O)[C@H](Cc1ccccc1)NC(=O)[C@H](CCCCN)NC(=O)[C@H](CCCNC(=N)N)NC(=O)[C@H](CC(C)C)NC(=O)[C@H](CCCNC(=N)N)NC(=O)[C@H](CCCCN)NC(=O)[C@H](CCCNC(=N)N)NC(=O)[C@H](CC(C)C)NC(=O)[C@@H](N)CCCNC(=N)N)[C@@H](C)CC)C(=O)NCC(=O)N[C@@H](CCC(N)=O)C(=O)N[C@@H](CCCCN)C(=O)N[C@H](C(=O)N[C@@H](CCC(N)=O)C(=O)NCC(=O)N[C@@H](Cc1ccccc1)C(=O)N[C@H](C(=O)N1CCC[C@H]1C(=O)N[C@@H](CCCCN)C(=O)N[C@@H](CC(C)C)C(=O)N[C@@H](CCC(N)=O)C(=O)N1CCC[C@H]1C(=O)N[C@@H](CO)C(=O)N[C@@H](CCCCN)C(=O)N[C@@H](CCC(N)=O)C(=O)N[C@@H](CO)C(=O)O)C(C)C)[C@@H](C)CC
lethal concentration (inhibition zone; penicillin-resistant P1389): 1.87 µM

ONCc1ccc(F)cc1
MIC50 (ATCC 1798; 8 h): < 60 µg/mL

CC(C)[C@H](NC(=O)[C@H](CO)NC(=O)[C@@H](N)CC(=O)O)C(=O)N[C@H]1CSC(=O)[C@H](Cc2ccccc2)NC(=O)[C@H](Cc2ccc(O)cc2)NC(=O)[C@H](CO)NC(=O)[C@H](C)NC1=O
IC50 (biofilm formation; RP62A; 24 h): 99 nM

Repeated from above:
ONCc1cc(C(F)(F)F)cc(C(F)(F)F)c1
MIC50 (ATCC 1798; 8 h): < 60 µg/mL
